# Results of several laboratories.
# Protocols differ between the studies behind these lines.
# Organism: Bacillus subtilis
Structure (SMILES),test,test system,conditions,MIC
CC(C)C[C@H](NC(=O)[C@@H]1CSCC(=O)N[C@@H](CCCCN)C(=O)N[C@@H](CC(C)C)C(=O)N[C@@H](CC(C)C)C(=O)NCCCC[C@@H]2NC(=O)[C@H](CC(C)C)NC(=O)[C@H](CC(C)C)NC(=O)[C@H](CCCCN)NC(=O)CSC[C@H](NC(=O)[C@H](CC(C)C)NC(=O)[C@H](CC(C)C)NC(=O)[C@H](CCCCN)NC2=O)C(=O)N[C@@H](CCCCN)C(=O)N[C@@H](CCCCN)C(=O)N[C@@H](CCCCN)C(=O)N1)C(N)=O,,BR 151,18 h,2 µg/mL
CN1C(=O)[C@@H]2NC(=O)[C@@H]3NC(=O)[C@@H](c4ccc(O)cc4)NC(=O)[C@H](NC(=O)C(N)c4ccc(O)cc4)Cc4c[nH]c5cc(ccc45)-c4cc3cc(c4O)Oc3ccc(cc3)C[C@H]1C(=O)N[C@@H](C(=O)NCCC[N+](C)(C)C)c1ccc(O)c(c1)Oc1ccc2cc1 (some centres unmarked),,"168, Mueller-Hinton broth",,4 µg/mL
CC[C@H](C)[C@@H]1NC(=O)CNC(=O)[C@H](CCCCN)NC(=O)[C@H](C)NC(=O)[C@H](CCC(=O)O)NC(=O)[C@H](Cc2ccccc2)NC(=O)[C@H](CO)NC(=O)[C@H](CC(C)C)NC(=O)[C@H](C(C)C)NC(=O)[C@H](CC(=O)O)NC(=O)[C@@H](NC(=O)[C@@H](NC(=O)[C@@H](N)C(C)C)[C@@H](C)O)CSSC[C@@H]2NC(=O)[C@H](CO)NC(=O)CNC(=O)CNC(=O)[C@H](CCCCN)NC(=O)[C@H](CCCCN)NC(=O)[C@H](CCCNC(=N)N)NC(=O)[C@H](CC(C)C)NC(=O)[C@H](C)NC(=O)[C@H]([C@@H](C)CC)NC(=O)[C@H](CSSC[C@@H](C(=O)N[C@@H](CCCNC(=N)N)C(=O)N[C@@H](CC(N)=O)C(=O)O)NC(=O)[C@H](C(C)C)NC(=O)[C@H](C)NC(=O)[C@H](C(C)C)NC(=O)CNC(=O)[C@H](CC(N)=O)NC(=O)[C@H](CCC(N)=O)NC2=O)NC(=O)[C@H](Cc2c[nH]cn2)NC(=O)[C@H](CC(C)C)NC(=O)[C@H](C)NC(=O)[C@H](C)NC(=O)[C@H](C)NC(=O)[C@H](CO)NC(=O)[C@H](Cc2c[nH]cn2)NC(=O)[C@H](CC(N)=O)NC(=O)[C@H](C(C)C)NC(=O)[C@H](C)NC1=O,broth microdilution,KCTC 3068,"16 h, 37 °C",> 100 µM
CC(C)C[C@@H]1NC(=O)CSC[C@@H](C(=O)N[C@@H](CCCCN)C(N)=O)NC(=O)[C@H](CC(C)C)NC(=O)[C@H](CCCCN)NC(=O)[C@H](CCCCN)NC(=O)[C@@H]2CSCC(=O)N[C@@H](CC(C)C)C(=O)N[C@@H](CC(C)C)C(=O)N[C@@H](CCCCNC(=O)[C@H](CC(C)C)NC1=O)C(=O)N[C@@H](CCCCN)C(=O)N[C@@H](CC(C)C)C(=O)N[C@@H](CCCCN)C(=O)N2,,BR 151,18 h,16 µg/mL
CC[C@H](C)[C@H](NC(=O)[C@H](CCCCNC(=N)N)NC(=O)[C@H](CC(N)=O)NC(=O)[C@H](CC(C)C)NC(=O)[C@H](Cc1ccccc1)NC(=O)[C@H](CCCCNC(=N)N)NC(=O)[C@H](CCCCNC(=N)N)NC(=O)[C@H](CC(C)C)NC(=O)[C@H](CC(C)C)NC(=O)[C@H](CCCCNC(=N)N)NC(=O)[C@H](CCCCNC(=N)N)NC(=O)[C@H](CC(C)C)NC(=O)CNC(C)=O)C(=O)N[C@@H](CCCCNC(=N)N)C(=O)N[C@@H](CCCCNC(=N)N)C(N)=O,broth microdilution,ATCC 6633,,3.12 µM
CC[C@H](C)[C@H](NC(=O)[C@H](CCCNC(=N)N)NC(=O)[C@H](CCCNC(=N)N)NC(=O)[C@H](CCCCN)NC(=O)[C@H](CC(N)=O)NC(=O)[C@H](CS)NC(=O)[C@H](Cc1ccc(O)cc1)NC(=O)CNC(=O)CNC(=O)[C@H](CCCNC(=N)N)NC(=O)[C@H](CCCCN)NC(=O)[C@H](CCCNC(=N)N)NC(=O)[C@H](CCCCN)NC(=O)[C@H](CC(C)C)NC(=O)[C@H](CC(C)C)NC(=O)[C@H](CS)NC(=O)[C@H](Cc1c[nH]cn1)NC(=O)[C@H](C)NC(=O)[C@H](C)NC(=O)[C@H](CS)NC(=O)[C@H](C)NC(=O)[C@H](C)NC(=O)[C@H](Cc1c[nH]cn1)NC(=O)[C@H](CC(N)=O)NC(=O)[C@@H](NC(=O)[C@H](CCCCN)NC(=O)[C@@H](NC(=O)CNC(=O)[C@H](CCCCN)NC(=O)[C@H](C)NC(=O)[C@H](CCC(=O)O)NC(=O)[C@H](C)NC(=O)[C@H](CO)NC(=O)[C@H](CC(C)C)NC(=O)[C@H](CC(C)C)NC(=O)[C@H](CC(=O)O)NC(=O)[C@H](CS)NC(=O)[C@@H](NC(=O)[C@@H](N)C(C)C)[C@@H](C)O)C(C)C)C(C)C)C(=O)N[C@@H](CS)C(=O)N[C@H](C(=O)N[C@@H](CS)C(=O)N[C@@H](CCCNC(=N)N)C(=O)N[C@@H](CC(N)=O)C(N)=O)C(C)C,,,,6 µg/mL
CC[C@H](C)[C@H](NC(=O)[C@H](NC(=O)[C@@H](CCC(N)=O)NC(=O)[C@@H](N)COC(=O)[C@@H](NC(=O)[C@@H](Cc1ccccc1)NC)[C@@H](C)CC)[C@@H](C)CC)C(=O)N[C@@H](CO)C(=O)N[C@H]1C(=O)N[C@@H](C)C(=O)N[C@@H](C2CCCCC2)C(=O)N[C@@H]([C@@H](C)CC)C(=O)O[C@H]1C,broth microdilution,"ATCC 6051, Mueller-Hinton broth","16 h, 37 °C",0.0625 µg/mL
CN1C(=O)[C@@H]2NC(=O)[C@@H]3NC(=O)[C@@H](c4ccc(O)cc4)NC(=O)[C@H](NC(=O)C(NCc4cccc(C(F)(F)F)c4)c4ccc(O)cc4)Cc4c[nH]c5cc(ccc45)-c4cc3cc(c4O)Oc3ccc(cc3)C[C@H]1C(=O)N[C@@H](C(=O)O)c1ccc(O)c(c1)Oc1ccc2cc1 (some centres unmarked),,"168, Mueller-Hinton broth",,4 µg/mL
CCCCCCCCCCCCCCCCCCCCCCSCC1OC(OC2C(N)CC(N)C(OC3OC(CN)C(O)CC3N)C2O)C(O)C(N)C1O (centres unmarked),,168 AAC(6')/APH(2'') plasmid,,> 150 µg/mL
CC[C@H](C)[C@H](N)C1=N[C@H](C(=O)N[C@@H](CC(C)C)C(=O)N[C@H](CCC(=O)O)C(=O)N[C@H](C(=O)N[C@H]2CCCCNC(=O)[C@H](CC(N)=O)NC(=O)[C@@H](CC(=O)O)NC(=O)[C@H](Cc3c[nH]cn3)NC(=O)[C@@H](Cc3ccc(-c4ccccc4)cc3)NC(=O)[C@H]([C@@H](C)CC)NC(=O)[C@@H](CCCN)NC2=O)[C@@H](C)CC)CS1,,168,"18 h, 37 °C, with: ZnSO4 0.3 mM",1 µg/mL
CCCCCCCCCC(=O)NCCCC[C@H](NC(=O)[C@H](CCCCN)NC(=O)[C@@H]1CSCC(=O)N[C@@H](CCCCN)C(=O)N[C@@H](CC(C)C)C(=O)N[C@@H](CCCCN)C(=O)N[C@H]2CCCCNC(=O)[C@H](CCCCN)NC(=O)[C@H](CC(C)C)NC(=O)[C@H](CCCCN)NC(=O)CSC[C@H](NC(=O)[C@H](CC(C)C)NC(=O)[C@H](CC(C)C)NC(=O)[C@H](CCCCN)NC2=O)C(=O)N[C@@H](CC(C)C)C(=O)N[C@@H](CC(C)C)C(=O)N[C@@H](CC(C)C)C(=O)N1)C(N)=O,,BR 151,18 h,4 µg/mL
CC[C@H](C)[C@H](NC(=O)[C@@H](NC(=O)[C@H](CCCCN)NC(=O)CNC(=O)[C@@H](NC(=O)[C@@H](NC(=O)[C@H](CO)NC(=O)[C@@H](NC(=O)[C@@H](NC(=O)[C@@H]1CCCN1C(=O)[C@@H](NC(=O)[C@@H](NC(=O)CN)[C@@H](C)CC)[C@@H](C)CC)[C@@H](C)CC)[C@@H](C)CC)[C@@H](C)CC)[C@@H](C)CC)[C@@H](C)CC)C(N)=O,broth microdilution,,,> 30 µM
CC(C)C[C@@H]1NC(=O)[C@H](CCN)NC(=O)CSC[C@@H](C(=O)N[C@@H](CCN)C(N)=O)NC(=O)[C@H](CC(C)C)NC(=O)[C@H](CC(C)C)NC(=O)[C@H](CC(C)C)NC(=O)[C@@H]2CSCC(=O)N[C@@H](CCN)C(=O)N[C@@H](CC(C)C)C(=O)N[C@@H](CCN)C(=O)N[C@@H](CCCCNC(=O)[C@H](CCN)NC1=O)C(=O)N[C@@H](CCN)C(=O)N[C@@H](CC(C)C)C(=O)N[C@@H](CC(C)C)C(=O)N2,,BR 151,18 h,4 µg/mL
CC[C@H](C)[C@H](NC(=O)[C@H](CCCCN)NC(=O)[C@H](CC(N)=O)NC(=O)[C@H](CC(C)C)NC(=O)[C@H](Cc1ccccc1)NC(=O)[C@H](CCCCN)NC(=O)[C@H](CCCCNC(=N)N)NC(=O)[C@H](CC(C)C)NC(=O)[C@H](CC(C)C)NC(=O)[C@H](CCCCN)NC(=O)[C@H](CCCCNC(=N)N)NC(=O)[C@H](CC(C)C)NC(=O)CNC(C)=O)C(=O)N[C@@H](CCCCN)C(=O)N[C@@H](CCCCNC(=N)N)C(N)=O,broth microdilution,ATCC 6633,,3.12 µM

# Excerpt of the above:
Structure (SMILES),test,test system,conditions,MIC
CC(C)C[C@H](NC(=O)[C@@H]1CSCC(=O)N[C@@H](CCCCN)C(=O)N[C@@H](CC(C)C)C(=O)N[C@@H](CC(C)C)C(=O)NCCCC[C@@H]2NC(=O)[C@H](CC(C)C)NC(=O)[C@H](CC(C)C)NC(=O)[C@H](CCCCN)NC(=O)CSC[C@H](NC(=O)[C@H](CC(C)C)NC(=O)[C@H](CC(C)C)NC(=O)[C@H](CCCCN)NC2=O)C(=O)N[C@@H](CCCCN)C(=O)N[C@@H](CCCCN)C(=O)N[C@@H](CCCCN)C(=O)N1)C(N)=O,,BR 151,18 h,2 µg/mL
CN1C(=O)[C@@H]2NC(=O)[C@@H]3NC(=O)[C@@H](c4ccc(O)cc4)NC(=O)[C@H](NC(=O)C(N)c4ccc(O)cc4)Cc4c[nH]c5cc(ccc45)-c4cc3cc(c4O)Oc3ccc(cc3)C[C@H]1C(=O)N[C@@H](C(=O)NCCC[N+](C)(C)C)c1ccc(O)c(c1)Oc1ccc2cc1 (some centres unmarked),,"168, Mueller-Hinton broth",,4 µg/mL
